Experimental data collected from several papers.
Numbered parts are unrelated; each lists some results of a single study. Substitutions count along the parent as printed.

Series 1
Target: RING finger protein unkempt homolog, zinc fingers 1-6, SBP tag (UNK, Homo sapiens, UniProt Q9C0B0, residues 30-357)
UniProt Q9C0B0, sequence (30-357, looked up): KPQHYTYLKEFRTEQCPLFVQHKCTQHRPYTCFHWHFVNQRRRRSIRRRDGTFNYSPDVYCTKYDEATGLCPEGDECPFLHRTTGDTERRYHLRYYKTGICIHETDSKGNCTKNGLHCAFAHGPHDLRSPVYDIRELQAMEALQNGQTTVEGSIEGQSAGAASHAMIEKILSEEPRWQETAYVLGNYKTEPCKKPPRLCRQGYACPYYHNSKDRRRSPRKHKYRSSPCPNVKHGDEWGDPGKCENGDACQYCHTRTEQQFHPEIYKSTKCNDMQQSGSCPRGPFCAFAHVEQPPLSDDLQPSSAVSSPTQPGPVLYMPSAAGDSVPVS
Technique: RNA Bind-n-Seq
Molecule type: RNA
Matrix: in vitro
Concentration: 100 nM
Notes: RNA with constant flanks, vertebrate orthologous sites, ends assumed
Relative to: input RNA pool
Direction: higher = stronger binding
Shared flanks, not repeated: GGGAGUUCUACAGUCCGACGAUC … CAACAGAGGAUUGAGCAUCA
| Strand | bound/input enrichment [ratio] |
| --- | --- |
| AUCUCUCACUUUAUAUAUCCAAAAAUGGCUUUUAAUUUUUCAAGACUUGCUGGUUUUAAUUAGCUCUGCCCUCAUAAGGUGAUGCUACAGUCCACCACAGAGCAGUGGUGUGAAUGGGUU | 0.527 |
| GUGUUUUGGUACCACUUGAUGUACCAAUACUCAUCCUUUUUUCAUUAUACCAACUAUCAUUAGAAGUAGGAGUUUAAUAUUUUUAAAAAUUUUACAUUGCUGUAUAUUCAAAAUUUUAAA | 0.63 |
| UAGUACUUAAGCCAACAACAGUUCUAAAAUGCUAUUUAUUUGUGUCUGUAAGAUUGUACAUAUACUACCAACCUCAUACUGUUGUGGAUUUUUUUUCUCACAAGCUUGAGUUUAGGUUUU | 0.507 |
| CCCCGAUUUUAGAUGUGAUAUCUAGGUUUUCAUUCCAGUUUGUUUUUGUCUUUUCUUGUUUAGAUACCAAUCUUUUAAAUUCUUGCAUUUUAGUAAGAAAGCUACCUUUUUAUGGAUGUU | 1.47 |
| UUGGGAACAGCUCUCCAAACAGGAAUAGUAGUAAAAAAAAUAAGCAAAAUGAUAUUUGUAUAGAAAAAACAGAAGUUAAAUCAUGUAAAGUAAAUGCUACCAACCUUCCAGGUCCUAAAG | 0.892 |
| UAUUAUAUGUAGAGAAAAAUUUUCAUUGACUCUCAUUGUGGAAUUCCCUAGCAAUUUAUUUAGACUUAAUUUUUUAAAUUCAAGCUUACUGUAUUAGUCAUUUUUAGCCCAUAAUUAAAA | 14.1 |
| CCCUGGGCUUAGUGACUCUGACUGAGCUAGGCUUGUGGUGUUUUGUUUUUUGUUUUGUUUUGGUAUUUUGGGUUUUUUUGGUGUUUUUUUUGUUGUUGUUGUUGUUUUUAAUUUAAAGAC | 1.04 |
| AGCAACGCAAGGAUUCAGGACUGGUUACACCAACCUGCCAAGUAGAUCUGGAAUUAAUAACAACAGACUUGGGCCACCAAGACCGUGAUGUGCUCUGACUUGAUUCUGCUAAGGAACCUU | 0.147 |
| AUCCCUCAGUGACAGUAUGCCAUCUGUAGCAGAUUCGCACUCUAGUCAUUUUUCUGAAUUUAGUUGUUCUGAUCUAGAAAGCAUGAAAACUUCCUGUAGUCAUGGUUCCAGUGAUUAUCA | 0.628 |
| CAUGCAUAUAAAAUGUGUAUCAAACGUUGGAUAUAGAAUGAAACUGUCACUUAAAAUAGCACUGUUAUAAUUAAGCUACAAAAAGGUUUCCUUAAACCAGAGCUGCACUGCCCUCAUCUG | 0.933 |
| AGAAAAUUUUAACCAAGAAUCUGAAGGUAGAAAUACAGGACCCUGGUUAUCUUCCUCACUUAGAAAUAGAUGCACACCUUUGUUCUCUAGAAGGAGGCGAGAGGGACGAGAUGAAUCUUC | 0.719 |

Series 2
Target: ABI1, truncated, D143A, DHFR fusion (Arabidopsis thaliana)
Technique: DHFR PCA, deep sequencing
Matrix: yeast
Notes: methotrexate growth selection, single substitutions
Added: (+)-ABA 2500 µM
Relative to: wild-type fitted maximum
Direction: higher = stronger binding
Starting sequence: PYL1, truncated, DHFR fusion (Arabidopsis thaliana); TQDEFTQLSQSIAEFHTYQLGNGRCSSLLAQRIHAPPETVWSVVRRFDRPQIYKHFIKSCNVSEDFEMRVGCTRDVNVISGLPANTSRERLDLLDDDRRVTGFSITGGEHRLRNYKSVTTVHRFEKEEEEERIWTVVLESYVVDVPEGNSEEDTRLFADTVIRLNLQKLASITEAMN; partner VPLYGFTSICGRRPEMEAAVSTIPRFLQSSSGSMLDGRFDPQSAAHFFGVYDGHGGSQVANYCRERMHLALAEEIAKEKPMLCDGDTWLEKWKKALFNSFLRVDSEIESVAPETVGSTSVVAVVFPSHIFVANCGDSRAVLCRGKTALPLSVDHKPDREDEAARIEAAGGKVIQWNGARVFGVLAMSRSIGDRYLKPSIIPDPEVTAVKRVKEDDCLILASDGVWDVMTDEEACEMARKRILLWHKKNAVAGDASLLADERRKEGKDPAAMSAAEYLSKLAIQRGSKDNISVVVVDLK
| Variant | relative binding score |
| --- | --- |
| D65L | 92.8% |
| D95F | 66.1% |
| T1D | 89.4% |
| I79A | 99.1% |
| L112E | 1.56% |
| A158S | 92.9% |
| I57E | 18.8% |
| S104D | 57.5% |
| E151C | 96.7% |
| S63M | 87.3% |
| V143L | 86.8% |
| F5E | 103% |
| H110A | 68.9% |
| D96L | 79.4% |
| V44G | 8.24% |

Series 3
Target: Sal-like protein 4, full length isoform B (SALL4, Homo sapiens, UniProt Q9UJQ4-2, residues 1-616)
Technique: universal PBM
Molecule type: double-stranded DNA, one strand shown
Matrix: in vitro
Concentration: not given
Notes: 8-mer, flanks averaged, mean of replicates
Direction: higher = stronger binding
| Strand | E-score |
| --- | --- |
| ACACCCTC | -0.0161 |
| TCATAGGA | 0.256 |
| ATGCTCCC | -0.113 |
| CTGCCGCA | -0.17 |
| ATCTAATC | 0.3 |
| ACCTTACG | -0.0326 |
| AGACCCGG | -0.292 |
| TACGAGTA | 0.151 |
| AGTATGTA | 0.206 |
| AGCTAGTC | -0.0327 |
| AGCAACAA | 0.186 |
| GGTACATA | 0.0656 |
| CCATGTAG | -0.00761 |
| CCTTCGTA | -0.123 |
| ACAAGCGA | -0.0406 |
| CCTAGAGA | -0.13 |
| ACCCGTAG | -0.266 |
| AAATTCTC | 0.0378 |
| CACGCCTG | -0.197 |
| GATGAACA | 0.123 |
| CGGGCAGC | -0.372 |
| AATCTCCC | -0.132 |

Series 4
Target: Histone acetyltransferase KAT6A, both winged helices, GST fusion (KAT6A, Homo sapiens, UniProt Q92794, residues 1-181)
Technique: protein binding microarray
Molecule type: double-stranded DNA, one strand shown
Matrix: in vitro
Concentration: not given
Notes: 8-mer, flanks averaged, mean of 2 arrays, mostly near background
Relative to: not given
Direction: higher = stronger binding
Target sequence (chain): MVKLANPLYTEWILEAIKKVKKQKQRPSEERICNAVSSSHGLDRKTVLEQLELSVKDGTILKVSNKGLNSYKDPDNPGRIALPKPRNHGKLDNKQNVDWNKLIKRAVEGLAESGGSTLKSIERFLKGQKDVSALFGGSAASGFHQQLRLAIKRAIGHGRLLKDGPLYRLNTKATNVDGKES
| Strand | E-score |
| --- | --- |
| AGGCAGGA | -0.27 |
| CTCCTACA | -0.182 |
| AGAGCCAT | -0.123 |
| GAGGGATA | -0.142 |
| CAATTAAG | 0.0164 |
| CGGATTTC | 0.171 |
| AAGGGAGC | -0.168 |
| TAGGCTAA | -0.0694 |
| AGGTCGGA | 0.0463 |
| CTCCTAAA | -0.294 |
| AATTGGCT | -0.139 |
| ATCTCTCC | -0.054 |
| ACACTTCG | -0.157 |
| ATAGCCGA | 0.0709 |
| CAGAGGGG | -0.288 |
| AAGAACGC | -0.019 |
| CCGTTACG | 0.3 |
| ACCTGGTA | -0.264 |
| GGGCAATA | 0.0186 |
| ATTAGCAA | -0.054 |
| CCTTAGGA | -0.166 |
| ACTGAACC | 0.07 |
| CCATTGCA | -0.104 |
| GCTTATTA | 0.0204 |

Series 5
Target: RNA binding protein fox-1 homolog 2, RRM domain, GST-SBP tag (RBFOX2, Homo sapiens, UniProt O43251-10, residues 100-194)
Technique: RNA Bind-n-Seq
Molecule type: RNA
Matrix: in vitro
Concentration: 365 nM
Notes: natural RNA segment, single round, ends assumed
Relative to: no-protein control
Direction: higher = stronger binding
Shared flanks, not repeated: GGGAGUUCUACAGUCCGACGAUC … UGGAAUUCUCGGGUGCCAA
Construct (chain): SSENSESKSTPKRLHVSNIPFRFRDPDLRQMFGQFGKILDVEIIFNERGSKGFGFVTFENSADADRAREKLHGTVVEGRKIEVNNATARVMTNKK
| Strand | RBNS enrichment (R) |
| --- | --- |
| CACCUGUCUCUCUCCGCAUCUCACUGUUAGAUUCUUUUCCACCUUUUUAACAAAUUUGCAUGUCAGUUUCUGUCAUGUUUAUUUAUUGGAUUCUCAGCUGCCUAAUCUGU | 0.765 |
| ACUGAUGAUGCCCAUGAUACAAUUAGAAGUAUGUUAAAGAAGCGUGGGCAUUACAGAGAGCAGAAAGAAAUGAAGAAUCCUCUUCUUACUGAUGGUACCAAAGAAUCAAA | 2.3 |
| AAUAGUCCCAUGCUGACUUUCUAUCUUCCUUUCUCAAACUGUCUUAGGAAGGACCUUCAGUGCAGAUCAGGUGCAGUAAUGGCUUUCUUGUCCCUUAAUUAUUCACCAGA | 0.294 |
| UCAGCUUUUGAAGUCUGGGCAGUUGACAAAGACCAGCCUGGUCCUAGUUAAUGGUAGAAUACUCCCAAAACUUGGAGAAAGAACUGCUCUCUGAAGCUAUCAGAAAUACC | 0.241 |
| UUCUAGGCUGUUCUGCUCAGAGCGAGGAACCACUGCUCCUCAAUGGGGAGGGAACAUACCACCCAGCCAGGCUUAGCAUUGGGUUUUAUCCUUUAAUAAAAGUUUUAUAA | 0.331 |
| AGAGGGGGCCUUGGCCACCAACAGUUCCAAACCAGGUCAGCUGUUAGCCGUCUCAUUGGCCAGUGGCAGCAUGGGCAGUGCCCAUUGCCCACAGAACGGUGGAGAGAGGG | 0.351 |
| GCUUCUAUGUAGUCCUACCACCUGCACAGAGGGGCUGGCAGGGCAGAAGUGUGACCUCAGUUAUAUAUACAUCCCAGCUCUGCCCAGUAUCCCUCACUUACCAAGAGGAG | 0.309 |
| CUAACCUUUUUCCCUCCUAAUUUGCUUUGAAAAAGUUUAGUAAUUCAAUUAAGCGUGAUUCUAUCUUAGAAGAAAUAAACUCAGUAUUAAUUCAUGUCUAAAUCACUGGG | 0.503 |
| GCCUUAUCAAGUGUCUUCCAUCAUGGAUUCAUUACAGCUUAAUCAAAAUAACGCCCCAGAUACCAGCCCCUGUAUGGCACUGGCAUUGUCCCUGUGCCUAACACCAGCGU | 0.363 |
| CAUUAUUUUUCCAAGUGUUUAGGUAAUAAUGUAUUACUUUGAAUUCAGAUUAAUGUUCUACUACUUGUGACUGAGAAAAGUUUAAUGCCGGCAUGGUAAAAGGAAGCUGU | 1.6 |
| GUGUUCAGAGGGAGUCUGCUACAAACUAUCAGGGCAAAAUCUCACUGGAUUUCUCCACUGAAAACCUACUUGAGGUUUCUGGUCUGAAGGCUUAAGAGUCACAUCUUAGC | 0.267 |
| ACACUUAACAUUUGAGACUAGUAUUUAUUGAUCCAGGCAAAGUAAUUAAUUAAUCAUGCUUGGGCUUACUUUUUCAGUUUGUAAGGUUAAGCAUAUGUGCAUGCGUGCGU | 4.59 |
